Measurements of several laboratories.
Every numbered part comes from another study and shows a few of its results, in no order.
Sequence of UniProt P49761 (whole entry, looked up): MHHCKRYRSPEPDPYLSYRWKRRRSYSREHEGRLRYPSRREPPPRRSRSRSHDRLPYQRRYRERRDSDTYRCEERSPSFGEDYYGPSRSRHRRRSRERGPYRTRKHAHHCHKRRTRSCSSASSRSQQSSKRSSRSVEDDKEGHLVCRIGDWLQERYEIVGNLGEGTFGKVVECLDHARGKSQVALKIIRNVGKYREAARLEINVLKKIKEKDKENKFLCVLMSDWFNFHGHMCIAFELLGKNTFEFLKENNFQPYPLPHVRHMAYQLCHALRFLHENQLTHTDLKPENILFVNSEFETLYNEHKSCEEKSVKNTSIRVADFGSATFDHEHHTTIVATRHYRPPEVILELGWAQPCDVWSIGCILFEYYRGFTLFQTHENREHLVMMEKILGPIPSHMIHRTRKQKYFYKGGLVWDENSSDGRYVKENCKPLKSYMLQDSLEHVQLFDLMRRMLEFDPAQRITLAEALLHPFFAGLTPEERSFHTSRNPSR
Sequence of UniProt P50750 (whole entry, looked up): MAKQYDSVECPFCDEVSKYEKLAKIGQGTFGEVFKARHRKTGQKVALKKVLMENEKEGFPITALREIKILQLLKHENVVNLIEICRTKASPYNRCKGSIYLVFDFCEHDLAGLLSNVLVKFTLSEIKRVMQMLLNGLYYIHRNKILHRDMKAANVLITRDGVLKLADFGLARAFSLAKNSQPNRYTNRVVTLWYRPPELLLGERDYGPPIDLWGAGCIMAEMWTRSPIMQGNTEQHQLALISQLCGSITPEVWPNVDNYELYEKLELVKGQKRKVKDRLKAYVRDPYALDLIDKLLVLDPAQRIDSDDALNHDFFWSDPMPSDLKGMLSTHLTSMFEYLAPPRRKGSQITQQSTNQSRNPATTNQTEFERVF
Sequence of UniProt Q6PHR2 (whole entry, looked up): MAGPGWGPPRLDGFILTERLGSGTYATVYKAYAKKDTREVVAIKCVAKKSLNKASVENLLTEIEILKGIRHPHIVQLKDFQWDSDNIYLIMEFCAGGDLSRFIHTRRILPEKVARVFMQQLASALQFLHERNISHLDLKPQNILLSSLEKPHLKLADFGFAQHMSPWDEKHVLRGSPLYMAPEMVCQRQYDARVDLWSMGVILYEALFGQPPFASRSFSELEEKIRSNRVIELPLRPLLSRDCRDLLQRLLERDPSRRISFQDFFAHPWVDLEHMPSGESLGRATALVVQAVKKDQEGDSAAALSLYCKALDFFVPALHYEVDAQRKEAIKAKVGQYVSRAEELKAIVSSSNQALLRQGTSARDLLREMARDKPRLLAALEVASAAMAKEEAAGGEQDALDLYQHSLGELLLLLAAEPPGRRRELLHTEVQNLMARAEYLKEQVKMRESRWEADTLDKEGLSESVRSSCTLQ
Sequence of UniProt P08631 (whole entry, looked up): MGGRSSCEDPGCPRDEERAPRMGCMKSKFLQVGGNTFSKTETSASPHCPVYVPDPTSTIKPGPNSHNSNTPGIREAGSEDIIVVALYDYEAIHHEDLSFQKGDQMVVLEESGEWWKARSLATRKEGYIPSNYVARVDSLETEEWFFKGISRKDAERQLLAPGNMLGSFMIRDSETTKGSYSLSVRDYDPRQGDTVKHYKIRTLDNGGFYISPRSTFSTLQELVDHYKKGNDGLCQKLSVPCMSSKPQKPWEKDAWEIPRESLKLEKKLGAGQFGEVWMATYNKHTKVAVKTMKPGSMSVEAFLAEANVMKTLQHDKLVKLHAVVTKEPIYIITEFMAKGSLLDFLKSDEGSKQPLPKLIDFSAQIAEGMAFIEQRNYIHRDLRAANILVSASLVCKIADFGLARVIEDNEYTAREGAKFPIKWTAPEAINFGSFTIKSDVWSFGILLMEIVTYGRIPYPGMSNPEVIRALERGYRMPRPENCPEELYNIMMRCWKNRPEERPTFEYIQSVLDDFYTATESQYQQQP
Sequence of UniProt Q16513 (whole entry, looked up): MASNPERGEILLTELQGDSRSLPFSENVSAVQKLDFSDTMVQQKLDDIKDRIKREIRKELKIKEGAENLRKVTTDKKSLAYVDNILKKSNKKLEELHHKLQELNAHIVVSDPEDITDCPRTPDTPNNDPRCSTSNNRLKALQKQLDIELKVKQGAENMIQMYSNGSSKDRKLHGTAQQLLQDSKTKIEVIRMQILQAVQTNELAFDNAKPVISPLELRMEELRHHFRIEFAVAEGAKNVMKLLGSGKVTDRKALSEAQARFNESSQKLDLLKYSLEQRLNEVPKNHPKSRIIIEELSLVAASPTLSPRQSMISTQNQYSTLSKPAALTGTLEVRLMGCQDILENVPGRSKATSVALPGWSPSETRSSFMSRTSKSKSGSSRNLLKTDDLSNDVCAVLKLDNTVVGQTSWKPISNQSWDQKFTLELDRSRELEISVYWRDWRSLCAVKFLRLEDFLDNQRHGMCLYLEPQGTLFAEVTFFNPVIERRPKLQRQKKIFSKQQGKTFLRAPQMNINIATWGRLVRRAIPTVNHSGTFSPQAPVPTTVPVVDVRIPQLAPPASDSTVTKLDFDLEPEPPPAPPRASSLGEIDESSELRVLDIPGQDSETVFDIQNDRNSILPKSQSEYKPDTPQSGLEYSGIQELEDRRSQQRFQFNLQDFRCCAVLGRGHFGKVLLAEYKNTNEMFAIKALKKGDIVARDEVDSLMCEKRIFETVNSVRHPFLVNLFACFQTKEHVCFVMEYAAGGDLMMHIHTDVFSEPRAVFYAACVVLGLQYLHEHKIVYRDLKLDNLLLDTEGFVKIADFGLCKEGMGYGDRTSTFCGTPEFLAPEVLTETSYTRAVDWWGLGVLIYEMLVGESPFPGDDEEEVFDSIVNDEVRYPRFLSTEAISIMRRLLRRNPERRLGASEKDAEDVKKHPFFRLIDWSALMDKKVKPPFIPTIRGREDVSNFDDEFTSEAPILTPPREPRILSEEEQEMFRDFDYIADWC
Sequence of UniProt O75676 (whole entry, looked up): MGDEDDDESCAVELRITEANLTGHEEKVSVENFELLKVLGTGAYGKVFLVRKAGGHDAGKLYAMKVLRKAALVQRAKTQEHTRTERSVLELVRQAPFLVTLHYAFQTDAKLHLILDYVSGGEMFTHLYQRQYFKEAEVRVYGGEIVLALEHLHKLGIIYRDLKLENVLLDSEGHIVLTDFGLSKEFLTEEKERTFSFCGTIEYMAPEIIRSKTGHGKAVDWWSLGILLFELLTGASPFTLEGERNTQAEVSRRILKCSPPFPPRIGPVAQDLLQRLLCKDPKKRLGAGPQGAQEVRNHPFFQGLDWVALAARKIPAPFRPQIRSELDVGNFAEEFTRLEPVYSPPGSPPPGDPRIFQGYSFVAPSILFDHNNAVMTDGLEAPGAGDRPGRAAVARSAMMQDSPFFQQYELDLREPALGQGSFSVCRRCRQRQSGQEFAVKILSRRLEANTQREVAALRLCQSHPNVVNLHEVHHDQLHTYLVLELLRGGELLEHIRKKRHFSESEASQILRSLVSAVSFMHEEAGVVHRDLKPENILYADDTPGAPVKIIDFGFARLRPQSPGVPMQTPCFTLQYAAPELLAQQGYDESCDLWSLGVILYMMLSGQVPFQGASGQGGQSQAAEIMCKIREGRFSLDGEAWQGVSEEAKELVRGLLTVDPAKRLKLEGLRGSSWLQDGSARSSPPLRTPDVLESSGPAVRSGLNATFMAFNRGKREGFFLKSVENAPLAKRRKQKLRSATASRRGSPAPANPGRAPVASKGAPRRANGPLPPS
Sequence of UniProt P51956 (whole entry, looked up): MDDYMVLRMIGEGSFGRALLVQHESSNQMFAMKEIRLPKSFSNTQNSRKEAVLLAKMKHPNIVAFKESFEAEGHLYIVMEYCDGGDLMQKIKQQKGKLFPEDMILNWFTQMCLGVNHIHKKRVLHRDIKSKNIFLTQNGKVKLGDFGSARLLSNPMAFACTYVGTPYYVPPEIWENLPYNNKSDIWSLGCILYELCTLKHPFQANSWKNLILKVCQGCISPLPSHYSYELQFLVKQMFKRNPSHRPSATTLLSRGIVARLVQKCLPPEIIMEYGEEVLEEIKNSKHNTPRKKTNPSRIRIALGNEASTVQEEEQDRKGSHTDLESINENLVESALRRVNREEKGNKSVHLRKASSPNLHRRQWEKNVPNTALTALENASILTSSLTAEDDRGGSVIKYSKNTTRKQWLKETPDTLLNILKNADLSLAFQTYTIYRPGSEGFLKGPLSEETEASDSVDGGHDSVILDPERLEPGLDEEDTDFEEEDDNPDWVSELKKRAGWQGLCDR
Sequence of UniProt P42681 (whole entry, looked up): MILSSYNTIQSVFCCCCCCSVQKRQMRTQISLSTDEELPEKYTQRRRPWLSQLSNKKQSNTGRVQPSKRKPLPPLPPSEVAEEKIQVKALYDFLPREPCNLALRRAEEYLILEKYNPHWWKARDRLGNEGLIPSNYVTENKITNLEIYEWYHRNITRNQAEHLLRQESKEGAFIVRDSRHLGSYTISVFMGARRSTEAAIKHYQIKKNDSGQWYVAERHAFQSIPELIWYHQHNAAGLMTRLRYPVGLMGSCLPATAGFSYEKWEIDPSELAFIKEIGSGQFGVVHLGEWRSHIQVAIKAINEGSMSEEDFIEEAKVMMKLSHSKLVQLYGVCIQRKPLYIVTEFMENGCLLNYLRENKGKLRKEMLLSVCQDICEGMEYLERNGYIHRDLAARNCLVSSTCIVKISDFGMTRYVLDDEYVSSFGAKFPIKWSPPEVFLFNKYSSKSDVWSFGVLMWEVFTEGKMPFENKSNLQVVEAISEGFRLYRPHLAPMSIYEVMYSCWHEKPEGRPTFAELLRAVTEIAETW

Series 1
Compound: O=C(N1CCS(=O)(=O)CC1)N1C[C@H](c2ccc(OC(F)(F)F)cc2)C[C@H](c2nc(C3CC3)no2)C1
Method: competition with immobilised ligand
Tested at: 1 µM
target | test | remaining binding
Serine/threonine-protein kinase 3 (STK3, Homo sapiens, UniProt Q13188) | cell-free assay | 100%
Tyrosine-protein kinase TXK (TXK, Homo sapiens, UniProt P42681) | binding | 100%
Ephrin type-B receptor 2 (EPHB2, Homo sapiens, UniProt P29323) | cell-free assay | 100%
Serine/threonine-protein kinase N2 (PKN2, Homo sapiens, UniProt Q16513) | cell-free assay | 100%
Serine/threonine-protein kinase ULK3 (ULK3, Homo sapiens, UniProt Q6PHR2) | cell-free assay | 93%
Homeodomain-interacting protein kinase 3 (HIPK3, Homo sapiens, UniProt Q9H422) | cell-free assay | 100%
Tyrosine-protein kinase CSK (CSK, Homo sapiens, UniProt P41240) | cell-free assay | 100%
Phosphatidylinositol 4,5-bisphosphate 3-kinase catalytic subunit alpha isoform (PIK3CA, Homo sapiens, UniProt P42336, C420R) | cell-free assay | 100%
Dual specificity mitogen-activated protein kinase kinase 2 (MAP2K2, Homo sapiens, UniProt P36507) | cell-free assay | 100%
Calcium/calmodulin-dependent protein kinase type II subunit beta (CAMK2B, Homo sapiens, UniProt Q13554) | cell-free assay | 100%
Tyrosine-protein kinase HCK (HCK, Homo sapiens, UniProt P08631) | cell-free assay | 100%

Series 2
SMILES: CN([C@@H](Cc1ccc(OS(=O)(=O)c2cccc3cnccc23)cc1)C(=O)N1CCN(c2ccccc2)CC1)S(=O)(=O)c1cccc2cnccc12
Read-out: enzyme activity
Action: inhibitor
Tested at: 0.5 µM
Relative to: control
target | remaining activity
Myosin-IIIb (MYO3B, Homo sapiens, UniProt Q8WXR4) | 88.5%
Serine/threonine-protein kinase PLK3 (PLK3, Homo sapiens, UniProt Q9H4B4) | 99.3%
Serine/threonine-protein kinase Nek3 (NEK3, Homo sapiens, UniProt P51956) | 99.8%
Calcium/calmodulin-dependent protein kinase type IV (CAMK4, Homo sapiens, UniProt Q16566) | 102%
Serine/threonine-protein kinase tousled-like 2 (TLK2, Homo sapiens, UniProt Q86UE8) | 100%
Ribosomal protein S6 kinase alpha-4 (RPS6KA4, Homo sapiens, UniProt O75676) | 98.7%
Dual specificity protein kinase CLK3 (CLK3, Homo sapiens, UniProt P49761) | 103%
Dual specificity mitogen-activated protein kinase kinase 1 (MAP2K1, Homo sapiens, UniProt Q02750) | 75.3%
Mitogen-activated protein kinase 1 (MAPK1, Homo sapiens, UniProt P28482) | 95.5%
Serine/threonine-protein kinase MRCK beta (CDC42BPB, Homo sapiens, UniProt Q9Y5S2) | 103%
Cyclin-dependent kinase 9, with cyclin K (CDK9, Homo sapiens, UniProt P50750) | 89.4%
Serine/threonine-protein kinase DCLK2 (DCLK2, Homo sapiens, UniProt Q8N568) | 94.1%

Series 3
Target: RING finger protein unkempt homolog, zinc fingers 1-6, GST-SBP tag (UNK, Homo sapiens, UniProt Q9C0B0, residues 30-357)
Sequence of UniProt Q9C0B0 (30-357, looked up): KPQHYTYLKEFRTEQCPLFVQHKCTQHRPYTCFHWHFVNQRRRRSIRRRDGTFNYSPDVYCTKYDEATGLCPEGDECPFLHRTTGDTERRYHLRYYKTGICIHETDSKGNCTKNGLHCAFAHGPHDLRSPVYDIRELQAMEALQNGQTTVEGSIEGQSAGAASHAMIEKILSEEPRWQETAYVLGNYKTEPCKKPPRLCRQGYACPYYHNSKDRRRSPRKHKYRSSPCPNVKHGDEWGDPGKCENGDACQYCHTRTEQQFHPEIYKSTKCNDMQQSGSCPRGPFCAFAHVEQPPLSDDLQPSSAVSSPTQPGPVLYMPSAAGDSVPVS
Method: RNA Bind-n-Seq
Molecule type: RNA
Medium: in vitro
Tested at: not given
Notes: RNA with constant flanks, human and mouse sites, ends assumed
Relative to: input RNA pool
Reading: higher = stronger binding
Oligonucleotide | bound/input enrichment [ratio]
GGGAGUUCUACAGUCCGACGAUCGACUUGGUACAUUUUGAUUUUAUGGAUCCACCAGCUCCUGAAACUCUGAUGAGAGCCCUGGAACUUUUGAAUUACCUGGCUGCUUUAAAUGAUGAUGGAGAUCUGACUGAAUUGGGAUCCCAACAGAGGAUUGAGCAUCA | 0.19
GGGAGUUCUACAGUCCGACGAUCUUUUCUUUCUUUCUUAGCUGUUAGCUGAGAGGAAGUCUCUGAACAGGCGGCAGCGGCUCUUAUAGUGCAACCAUGGCAGACUAUUCAACAGUGCCUCCCCCCUCUUCUGGCUCAGCUGGUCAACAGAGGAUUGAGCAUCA | 0.428
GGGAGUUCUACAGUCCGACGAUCACCUCCUCGUCCAGCAGCAGCGGCAGCAGCAGCGGCAGCAGCGGCGAGGACGCCGACGACCUGAUGUUCGACCUGAGCUUGAAUUUCUCUCAAAGCGCGCACAGCGCCAGCGAGCAGCAGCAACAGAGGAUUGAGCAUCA | 0.118
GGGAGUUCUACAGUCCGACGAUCGGGCGGCCGGUGGGGGAAUCCCCUGCCUUGGCCUUGCCUCCCCUUCCUGCCACGUGCCCCUAGUUAUUUUUUUUUUUUUAACACCAUGUGAUUAAGGUCGGCGCUGCCUCCCCCGACCCACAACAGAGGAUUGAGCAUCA | 35
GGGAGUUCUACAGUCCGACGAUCGUCCUCCUUCAUUUUAAGGGUUAUUCCCAUUGUAUUGAUGUUUAUAUAAAGCAGUGCCAGGAGGGUGCUUACUUGAGAAAUGACAUAUUUGAAGAUGCAGCAAUACUCUGUCAGCGAGUGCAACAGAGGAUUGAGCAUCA | 0.3
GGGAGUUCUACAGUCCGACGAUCUAGCAGGUAAGGCCUCUCAGUGUGAUGAGCUGUUGCCAAAACUCAAUGUCUGCCCCUUCGCCUAAGGUCUCAAAGACAAACCAACAACUCCAAAGUCCAUGCAGGCUAACCUUAUAUAGUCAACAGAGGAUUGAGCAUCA | 0.183
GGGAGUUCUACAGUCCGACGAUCAGUUAUUAGACUUGCUAAUACAAGCAUACAUGUGCAACAGCUACUGGAUACUGAUAGCUAUCAAACCUCAAAUUUAAAGAUUUUCCUUCAUGGAAAAGUUACUAUACUUUGCAAGAAACCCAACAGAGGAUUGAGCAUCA | 0.406
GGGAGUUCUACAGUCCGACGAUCAUCUCCUUUUAUGCUCACCUGACAUUAAUUAUCUAUCCUUGAUGAUGUGUUUAAACUGAGUAGCAGAAAACAGAGGCCACACUUUCUGGGAAAUUUUAAAGGAAGAAACCAUUUUUAAUGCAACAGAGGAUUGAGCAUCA | 0.225

Further values, each from its own experiment
Molecule | target | test | test system | conditions | scale | endpoint | result
PhoQ, residues 284 288 289 292 302 303 GLASVI | PhoP, residues 12 14 15 18 19 TQAIL (Escherichia coli, UniProt P23836) | Sort-seq, refers to: YFP reporter | E. coli | PhoQ-PhoP variant library, together with: 10 µM Mg2+ | relative to: high Mg2+ state, higher = stronger signaling | fold induction | 21
